Published values gathered from unrelated publications.
Each numbered part is a random draw from the data of one study; scales do not carry over between parts. Positions count from the first letter of the parent shown.

Study 1
Target: PABPC1L2, full length, GST fusion (mouse, UniProt A0ABA7IW68)
Technique: RNAcompete
Form: RNA
Sample: in vitro
Tested at: 20 nM
Setting: 7-mer, probes averaged, single round
Reference: mean of 7-mers
Reading: higher = stronger binding
Residues (chain): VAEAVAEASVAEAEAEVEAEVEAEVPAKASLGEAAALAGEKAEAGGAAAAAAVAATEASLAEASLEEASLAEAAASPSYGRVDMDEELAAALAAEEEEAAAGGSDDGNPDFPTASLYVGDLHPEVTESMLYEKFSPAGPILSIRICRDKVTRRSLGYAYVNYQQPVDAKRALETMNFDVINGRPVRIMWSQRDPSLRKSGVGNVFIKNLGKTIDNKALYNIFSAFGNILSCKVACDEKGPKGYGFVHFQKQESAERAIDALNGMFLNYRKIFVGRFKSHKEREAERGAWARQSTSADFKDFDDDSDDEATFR
| Sequence | 7-mer Z-score |
| --- | --- |
| AUCUGUA | -0.168 |
| CGGUUCG | -0.257 |
| UAUGCUC | -0.142 |
| UGAGACU | -0.164 |
| UCAAACA | 0.863 |
| CGAGGGU | -0.0228 |

Study 2
Target: Histone acetyltransferase KAT6A, winged helix 1, GST fusion (KAT6A, Homo sapiens, UniProt Q92794, residues 1-85)
Technique: protein binding microarray
Form: double-stranded DNA, one strand shown
Sample: in vitro
Tested at: not given
Setting: 8-mer, flanks averaged, mean of 2 arrays, mostly near background
Reference: not given
Reading: higher = stronger binding
Target sequence (chain): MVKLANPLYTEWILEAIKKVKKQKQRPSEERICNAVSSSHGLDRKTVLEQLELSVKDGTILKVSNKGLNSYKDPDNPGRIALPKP
| Sequence | E-score |
| --- | --- |
| GCAGGACA | -0.111 |
| GGTTCGTA | -0.0406 |
| CGATTTCC | -0.0318 |
| AAATTATT | -0.0997 |

Further values, each from its own experiment
CCNE2: CCNE2, cyclin fold, Cln2 fusion (human)
P1: PKMYT1 docking peptide (human); SFEPRNLLSLFED; partner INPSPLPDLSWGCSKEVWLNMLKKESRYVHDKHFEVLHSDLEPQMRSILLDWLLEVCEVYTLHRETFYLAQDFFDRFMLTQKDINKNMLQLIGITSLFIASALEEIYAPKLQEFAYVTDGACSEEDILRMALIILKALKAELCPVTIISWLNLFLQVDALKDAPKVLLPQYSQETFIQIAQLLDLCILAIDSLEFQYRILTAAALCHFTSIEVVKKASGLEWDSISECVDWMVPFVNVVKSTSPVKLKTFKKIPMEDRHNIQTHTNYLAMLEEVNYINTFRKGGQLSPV
| Molecule | target | test | system | setting | scale | quantity | result |
| --- | --- | --- | --- | --- | --- | --- | --- |
| P1 F11I | CCNE2 | yeast growth competition, sequencing | yeast | weak parent motif | reference: not given, higher = stronger binding | normalised enrichment score | 0.291 |
| PhoQ, residues 284 288 289 292 302 303 WVSSAF | PhoP, residues 12 14 15 18 19 AQALL (Escherichia coli, UniProt P23836) | Sort-seq, refers to: YFP reporter | E. coli | PhoQ-PhoP variant library, with: 10 µM Mg2+ | reference: high Mg2+ state, higher = stronger signaling | fold induction | 14 |
| P1 E3A | CCNE2 | yeast growth competition, sequencing | yeast | weak parent motif | reference: not given, higher = stronger binding | normalised enrichment score | 0.504 |
| LLRRLQDVANDRG | human cyclin B2 | peptide binding, yeast competitive growth sequencing | peptide, Saccharomyces cerevisiae, cyclin B2-Cln2 fusion | concentration not given, library 2 | direction not given | binding enrichment score | -0.825 |
| P1 L8M | CCNE2 | yeast growth competition, sequencing | yeast | weak parent motif | reference: not given, higher = stronger binding | normalised enrichment score | 0.44 |

A few entries again (study 2):
| Sequence | E-score |
| --- | --- |
| GGTTCGTA | -0.0406 |
